# Measured values pooled from the literature.
# Each line is one published result; not all experiments were run side by side. Values joined by “and” are separate records of one study, mostly repeats; a detail may differ. Numbers after ± are the reported error.
# SCN10A: Sodium channel protein type 10 subunit alpha (SCN10A, Homo sapiens, UniProt Q9Y5Y9)
# Chain of UniProt Q9Y5Y9 (whole entry, looked up): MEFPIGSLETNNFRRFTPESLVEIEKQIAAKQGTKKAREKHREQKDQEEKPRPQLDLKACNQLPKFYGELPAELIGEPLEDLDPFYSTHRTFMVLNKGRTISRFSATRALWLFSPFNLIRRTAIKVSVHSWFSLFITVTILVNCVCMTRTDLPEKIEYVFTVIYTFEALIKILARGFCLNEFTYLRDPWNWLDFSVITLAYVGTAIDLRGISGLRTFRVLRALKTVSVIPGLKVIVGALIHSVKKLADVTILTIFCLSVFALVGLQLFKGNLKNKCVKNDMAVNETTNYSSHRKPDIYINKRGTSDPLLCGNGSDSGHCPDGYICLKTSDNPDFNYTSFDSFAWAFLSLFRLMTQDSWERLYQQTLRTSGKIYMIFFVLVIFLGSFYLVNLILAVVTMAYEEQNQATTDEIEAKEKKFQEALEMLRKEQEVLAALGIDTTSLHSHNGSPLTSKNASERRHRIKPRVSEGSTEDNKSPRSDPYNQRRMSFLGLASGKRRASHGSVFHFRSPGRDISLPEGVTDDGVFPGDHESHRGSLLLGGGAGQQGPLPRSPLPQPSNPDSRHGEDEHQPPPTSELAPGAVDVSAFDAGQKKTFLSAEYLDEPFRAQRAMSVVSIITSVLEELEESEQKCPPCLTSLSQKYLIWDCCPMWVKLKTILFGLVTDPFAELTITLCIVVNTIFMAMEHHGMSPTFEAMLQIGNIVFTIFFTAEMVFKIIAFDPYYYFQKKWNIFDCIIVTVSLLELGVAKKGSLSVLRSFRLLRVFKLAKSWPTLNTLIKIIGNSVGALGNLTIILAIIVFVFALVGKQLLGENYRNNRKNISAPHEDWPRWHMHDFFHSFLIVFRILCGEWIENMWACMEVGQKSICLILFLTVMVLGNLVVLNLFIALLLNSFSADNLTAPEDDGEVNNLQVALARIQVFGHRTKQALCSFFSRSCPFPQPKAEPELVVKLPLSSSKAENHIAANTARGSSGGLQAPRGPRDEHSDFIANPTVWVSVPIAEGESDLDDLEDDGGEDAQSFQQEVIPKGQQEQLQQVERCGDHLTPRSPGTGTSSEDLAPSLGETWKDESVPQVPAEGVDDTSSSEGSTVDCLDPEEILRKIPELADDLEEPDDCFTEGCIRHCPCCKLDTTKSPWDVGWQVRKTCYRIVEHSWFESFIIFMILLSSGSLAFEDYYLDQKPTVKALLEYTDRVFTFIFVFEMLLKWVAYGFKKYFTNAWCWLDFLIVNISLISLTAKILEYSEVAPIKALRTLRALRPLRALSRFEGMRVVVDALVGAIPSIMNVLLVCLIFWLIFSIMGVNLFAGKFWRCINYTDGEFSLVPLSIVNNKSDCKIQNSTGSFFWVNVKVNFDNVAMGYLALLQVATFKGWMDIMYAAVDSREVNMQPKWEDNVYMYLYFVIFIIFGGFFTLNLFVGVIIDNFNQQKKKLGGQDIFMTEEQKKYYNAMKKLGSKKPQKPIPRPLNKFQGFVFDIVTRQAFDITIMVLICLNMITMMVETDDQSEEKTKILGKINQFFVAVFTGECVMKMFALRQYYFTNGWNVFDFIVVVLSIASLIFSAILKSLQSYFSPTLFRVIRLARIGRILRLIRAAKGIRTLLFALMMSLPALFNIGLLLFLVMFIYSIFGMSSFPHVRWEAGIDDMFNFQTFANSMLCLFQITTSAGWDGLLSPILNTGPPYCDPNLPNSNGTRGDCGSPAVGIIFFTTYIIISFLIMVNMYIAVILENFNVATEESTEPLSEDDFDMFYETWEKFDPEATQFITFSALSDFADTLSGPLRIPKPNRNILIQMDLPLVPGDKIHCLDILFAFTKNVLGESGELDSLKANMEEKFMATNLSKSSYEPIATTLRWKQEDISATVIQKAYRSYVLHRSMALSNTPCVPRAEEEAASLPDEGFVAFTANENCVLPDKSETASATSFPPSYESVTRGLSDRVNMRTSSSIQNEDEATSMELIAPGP
# CHRM4: Muscarinic acetylcholine receptor M4 (CHRM4, Homo sapiens, UniProt P08173)
# Chain of UniProt P08173 (whole entry, looked up): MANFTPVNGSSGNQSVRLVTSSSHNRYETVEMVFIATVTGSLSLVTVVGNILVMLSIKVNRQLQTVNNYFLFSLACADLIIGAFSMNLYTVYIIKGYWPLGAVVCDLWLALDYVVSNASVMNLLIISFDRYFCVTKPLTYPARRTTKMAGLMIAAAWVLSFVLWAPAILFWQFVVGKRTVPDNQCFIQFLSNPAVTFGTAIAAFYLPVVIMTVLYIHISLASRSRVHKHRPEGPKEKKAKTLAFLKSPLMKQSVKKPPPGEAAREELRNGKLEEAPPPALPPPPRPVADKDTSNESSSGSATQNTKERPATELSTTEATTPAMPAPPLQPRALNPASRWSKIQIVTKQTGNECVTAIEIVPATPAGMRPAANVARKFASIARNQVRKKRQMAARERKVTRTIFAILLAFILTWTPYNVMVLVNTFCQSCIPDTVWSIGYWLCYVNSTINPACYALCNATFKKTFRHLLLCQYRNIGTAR
# CHRM1: Muscarinic acetylcholine receptor M1 (CHRM1, Homo sapiens, UniProt P11229)
# Chain of UniProt P11229 (whole entry, looked up): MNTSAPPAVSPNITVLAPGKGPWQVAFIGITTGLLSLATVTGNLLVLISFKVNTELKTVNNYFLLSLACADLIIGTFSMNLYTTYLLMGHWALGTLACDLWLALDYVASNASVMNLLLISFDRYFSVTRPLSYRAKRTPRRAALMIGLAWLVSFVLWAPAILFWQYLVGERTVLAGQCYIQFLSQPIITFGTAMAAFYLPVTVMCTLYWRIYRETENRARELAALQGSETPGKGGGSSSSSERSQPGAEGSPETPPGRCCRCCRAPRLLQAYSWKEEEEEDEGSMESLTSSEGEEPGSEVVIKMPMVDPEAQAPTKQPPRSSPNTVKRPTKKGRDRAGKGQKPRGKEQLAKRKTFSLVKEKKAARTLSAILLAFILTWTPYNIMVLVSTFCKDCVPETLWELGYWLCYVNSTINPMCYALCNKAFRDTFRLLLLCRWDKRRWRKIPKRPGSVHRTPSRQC
# T1: c-di-GMP riboswitch (Clostridium acetobutylicum); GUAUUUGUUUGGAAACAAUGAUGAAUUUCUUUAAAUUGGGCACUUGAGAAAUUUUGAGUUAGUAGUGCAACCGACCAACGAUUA
# T2: DNA G4, G-quadruplex (Homo sapiens); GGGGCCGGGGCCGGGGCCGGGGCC
# Chain of UniProt P14780 (whole entry, looked up): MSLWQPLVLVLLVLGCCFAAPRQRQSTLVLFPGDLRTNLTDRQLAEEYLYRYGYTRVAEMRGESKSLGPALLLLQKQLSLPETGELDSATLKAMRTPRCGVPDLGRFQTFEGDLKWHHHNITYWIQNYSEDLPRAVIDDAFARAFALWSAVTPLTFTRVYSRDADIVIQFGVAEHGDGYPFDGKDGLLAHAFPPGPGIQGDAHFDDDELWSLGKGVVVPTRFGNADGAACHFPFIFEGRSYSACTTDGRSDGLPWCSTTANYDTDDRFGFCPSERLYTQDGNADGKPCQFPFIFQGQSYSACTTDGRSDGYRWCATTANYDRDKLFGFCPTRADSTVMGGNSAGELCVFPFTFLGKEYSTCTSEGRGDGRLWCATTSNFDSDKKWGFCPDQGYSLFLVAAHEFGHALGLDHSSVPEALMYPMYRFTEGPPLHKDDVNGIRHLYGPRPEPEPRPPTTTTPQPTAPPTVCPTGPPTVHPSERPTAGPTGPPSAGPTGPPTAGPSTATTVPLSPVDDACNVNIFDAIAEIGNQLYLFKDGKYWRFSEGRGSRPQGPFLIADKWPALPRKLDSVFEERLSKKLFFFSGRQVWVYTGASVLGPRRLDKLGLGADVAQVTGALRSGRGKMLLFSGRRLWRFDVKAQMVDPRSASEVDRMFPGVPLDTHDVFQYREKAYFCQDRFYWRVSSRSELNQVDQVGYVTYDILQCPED
# Chain of UniProt P12369 (whole entry, unmodified, looked up): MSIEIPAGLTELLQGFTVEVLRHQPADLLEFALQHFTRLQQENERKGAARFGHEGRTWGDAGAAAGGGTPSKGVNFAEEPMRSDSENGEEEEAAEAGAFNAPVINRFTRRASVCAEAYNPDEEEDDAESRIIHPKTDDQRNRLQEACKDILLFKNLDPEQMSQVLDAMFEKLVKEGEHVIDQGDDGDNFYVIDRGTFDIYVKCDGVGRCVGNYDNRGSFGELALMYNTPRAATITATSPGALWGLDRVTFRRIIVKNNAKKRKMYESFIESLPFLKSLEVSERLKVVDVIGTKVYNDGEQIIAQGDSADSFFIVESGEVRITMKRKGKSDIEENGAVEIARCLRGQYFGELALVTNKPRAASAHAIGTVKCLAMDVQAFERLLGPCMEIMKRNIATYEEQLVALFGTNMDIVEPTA
# Chain of UniProt Q7L266 (whole entry, looked up): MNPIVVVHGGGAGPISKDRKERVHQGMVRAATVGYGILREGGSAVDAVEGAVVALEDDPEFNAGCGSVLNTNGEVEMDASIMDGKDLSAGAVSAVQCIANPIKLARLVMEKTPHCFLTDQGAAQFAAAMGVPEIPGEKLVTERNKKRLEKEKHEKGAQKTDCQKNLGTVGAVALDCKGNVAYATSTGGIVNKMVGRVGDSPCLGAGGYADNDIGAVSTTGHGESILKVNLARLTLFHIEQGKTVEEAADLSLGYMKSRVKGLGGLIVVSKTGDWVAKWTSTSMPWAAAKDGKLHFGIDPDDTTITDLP
# Chain of UniProt P21980 (whole entry, looked up): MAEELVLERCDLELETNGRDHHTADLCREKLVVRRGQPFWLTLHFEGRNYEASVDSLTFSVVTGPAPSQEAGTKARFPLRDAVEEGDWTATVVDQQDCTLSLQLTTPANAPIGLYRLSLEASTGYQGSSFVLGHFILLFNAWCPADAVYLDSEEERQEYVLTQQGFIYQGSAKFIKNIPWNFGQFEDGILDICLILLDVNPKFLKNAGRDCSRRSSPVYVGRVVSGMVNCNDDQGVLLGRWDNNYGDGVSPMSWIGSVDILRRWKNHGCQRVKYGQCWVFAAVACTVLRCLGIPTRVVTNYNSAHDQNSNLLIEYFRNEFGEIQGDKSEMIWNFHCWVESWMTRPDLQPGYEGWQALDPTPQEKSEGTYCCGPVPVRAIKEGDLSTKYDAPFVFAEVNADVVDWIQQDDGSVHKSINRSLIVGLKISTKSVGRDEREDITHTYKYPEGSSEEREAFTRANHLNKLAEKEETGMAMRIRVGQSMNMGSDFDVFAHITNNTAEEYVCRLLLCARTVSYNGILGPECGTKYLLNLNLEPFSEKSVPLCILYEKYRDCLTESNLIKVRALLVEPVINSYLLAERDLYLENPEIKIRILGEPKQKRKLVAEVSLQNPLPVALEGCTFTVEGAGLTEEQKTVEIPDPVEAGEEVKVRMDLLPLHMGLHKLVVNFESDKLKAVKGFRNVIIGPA
Molecule,target,assay,test system,conditions,scale,quantity,result
O=C(Nc1ccc(-n2nc(C(F)(F)F)cc2C(F)(F)F)cc1)c1ccncc1F,"TRPC3 (Homo sapiens, UniProt Q13507)","TRPC3 receptor-operated current, inhibitor, patch clamp",HEK293 transiently expressing TRPC3,"3 µM, together with: carbachol maximal activation",,peak current,-9.5 ± 2.66 pA/pF
CCCNC(C)C(=O)Nc1c(C)csc1C(=O)OC (stereo not drawn),SCN10A,cell membrane chromatography,,,higher = stronger binding,capacity factor k′,51
CIKVAVS,human polyclonal IgM rheumatoid factor,binding to mAb II-481,peptide,"combined CDR peptides, serum SOR",,maximum inhibition,0%
C=CC(=O)NCCCC[C@H](NC(=O)OCc1ccccc1)C(=O)NCC(=O)O,"TGM2 (Homo sapiens, UniProt P21980)",,,pH 6.5,,kinact,0.021 ± 0.00283 s⁻¹
Nc1nc2c(ncn2[C@H]2C[C@@H]3OP(=O)(O)OC[C@H]4O[C@@H](n5cnc6c(=O)[nH]c(N)nc65)C[C@@H]4OP(=O)(O)OC[C@H]3O2)c(=O)[nH]1,"T1, c-di-GMP riboswitch (Clostridium acetobutylicum)","competitor, competition gel-shift",,"4-24 h, pH 6.8, 22 °C, together with: radiolabelled c-di-GMP",,Kd,1.1e-05 mM
COc1ccc(C)c2sc(NC(=O)CCc3ccccc3)nc12,CHRM4,"calcium mobilization, positive allosteric modulator",CHO expressing hM4 and Gqi5,"concentration not given, together with: acetylcholine EC20",,activity,inactive
CC1(C)Cc2cc(Cl)cc(C3CC3CN)c2O1 (racemic),"HTR2B (Homo sapiens, UniProt P41595)","agonist, FLIPR calcium flux",HEK293,up to 10 µM,,EC50,inactive
cardiac troponin I S166F,F1FO-ATP synthase (rat heart),ELISA,,concentration not given,,binding,no binding
O=c1c(O)c(-c2ccc(O)c(O)c2)oc2cc(O)cc(O)c12,"UGT1A3 (Homo sapiens, UniProt P35503)","enzyme activity, inhibitor",,50 µM,,remaining activity,< 30.8%
COCCN1CCN(C(C)C(=O)Nc2c(C)csc2C(=O)OC)CC1 (stereo not drawn),SCN10A,cell membrane chromatography,,,higher = stronger binding,capacity factor k′,67
CC(C)=CCC/C(C)=C/CC/C(C)=C/CO,"All-trans-retinol dehydrogenase [NAD(+)] ADH7 (Adh7, Rattus norvegicus, UniProt P41682)",substrate,,"0.1 mM, pH 7.4, together with: 2 mM NAD+",,dehydrogenase activity,43 U/mg
COc1ccc(C)c2sc(NC(=O)c3ccccn3)nc12,CHRM4,"calcium mobilization, positive allosteric modulator",CHO expressing hM4 and Gqi5,"concentration not given, together with: acetylcholine EC20",,activity,inactive
NCC(=O)O,"Isoaspartyl peptidase/L-asparaginase (ASRGL1, Homo sapiens, UniProt Q7L266)",differential scanning fluorimetry,,"1 M, pH 7.5, unprocessed protein",,melting temperature,71 °C
O=c1cc(-c2ccccc2OCc2ccc(-c3cn[nH]c3)cc2)ncn1C1CCCCC1O (stereo not drawn),CHRM1,"positive allosteric modulator, IP1 accumulation",CHO-M1 cells,"10 µM, 60 min, 37 °C, together with: ACh","baseline: ACh alone, higher = stronger potentiation",ΔpEC50 of ACh,2.15 ± 0.6 log units
NS(=O)(=O)c1ccc(N2N=C(C(F)(F)F)C[C@H]2c2ccc(F)cc2F)cc1,"Cyclooxygenase-2 (Canis lupus familiaris, UniProt Q8SPQ9)","PGE2 formation, inhibitor",dog whole blood,"24 h, together with: LPS",,IC20,2400 nM
COC(=O)c1scc(C)c1NC(=O)C(C)N1CCN(C)C(C)C1 (stereo not drawn),SCN10A,cell membrane chromatography,,,higher = stronger binding,capacity factor k′,3.2
O=C(O)[C@H]1O[C@@H](Oc2c(-c3ccc(O)cc3)oc3cc(O)ccc3c2=O)[C@H](O)[C@@H](O)[C@@H]1O,"UGT1A1 (Homo sapiens, UniProt P22309)","glucuronidation, substrate, Supersomes",,,,Vmax,3.87 ± 0.84 nmol/mg/min
O=C(O)Cc1ccccc1Nc1c(Cl)cccc1Cl,"unc-8 (Caenorhabditis elegans, UniProt Q21974, G387E)","ion current, two-electrode voltage clamp",Xenopus oocytes coexpressing MEC-2,"30 µM, -85 mV","baseline: uninjected oocytes, positive = inhibition",current change,0.24 µA
CC1(C)c2cc3cc(-c4ccc(O)cc4O)c(=O)oc3cc2OC1CO (stereo not drawn),quinone reductase,inducer,Hepa1c1c7,,,concentration doubling activity,> 20 µM
CCN(c1ccc(Cl)cc1)S(=O)(=O)C1CC2OC1C(c1ccc(O)cc1)=C2c1ccc(O)cc1 (stereo not drawn),"ESR2 (Homo sapiens, UniProt Q92731)","reporter gene, antagonist",HepG2,together with: estradiol 10 nM,"baseline: E2 response, negative is inverse agonism",efficacy,-12 ± 1%
NC(=O)CN[C@H]1CCCNC1,"Papain (Carica papaya, UniProt P00784)",inhibitor,,,baseline: Ki papain over Ki IdeS,selectivity ratio,≥ 16 fold
O=c1cc(N2CCOCC2)oc2c(OCc3cccnc3)cccc12,"PIK3CA (Homo sapiens, UniProt P42336, Q859D)",enzyme activity,,"concentration not given, Gln-Asp swap",baseline: wild type,fold change in selectivity,13.7
COc1ccc(C)c2sc(NS(=O)(=O)c3ccc(C(F)(F)F)cc3)nc12,CHRM4,"calcium mobilization, positive allosteric modulator",CHO expressing hM4 and Gqi5,"concentration not given, together with: acetylcholine EC20",,activity,inactive
CC[C@H](C)[C@H](NC(=O)[C@H](CC(C)C)NC(=O)[C@H](CC(C)C)NC(=O)CNC(=O)[C@H](Cc1ccc(O)cc1)NC(=O)[C@H](CCCNC(=N)N)NC(=O)[C@H](CO)NC(C)=O)C(=O)N[C@@H](CCCCN)C(=O)N[C@@H](C)C(=O)N[C@@H](Cc1ccccc1)C(=O)N[C@@H](CO)C(=O)N[C@@H](CCSC)C(=O)N[C@H](C(=O)N[C@@H](C)C(=O)N[C@@H](C)C(=O)N[C@@H](CCC(=O)O)C(=O)N[C@H](C(=O)N[C@@H](C)C(=O)N[C@@H](CCCNC(=N)N)C(=O)N[C@@H](CCCNC(=N)N)C(=O)N[C@H](C(=O)N[C@@H](CCCNC(=N)N)C(=O)N[C@@H](CCC(=O)O)C(=O)N[C@@H](Cc1ccccc1)C(=O)N[C@@H](CCCNC(=N)N)C(N)=O)[C@@H](C)O)[C@@H](C)O)[C@@H](C)O,calmodulin 76-148 sites III and IV,"calcium binding, Tyr fluorescence titration",,"12 µM, pH 7.4, 22 °C, together with: 6 µM calmodulin",,apparent ΔG2,-15.54 ± 0.08 kcal/mol
COc1ccc(C)c2sc(C(=O)NCc3ccncc3)nc12,CHRM4,"calcium mobilization, positive allosteric modulator",CHO expressing hM4 and Gqi5,"concentration not given, together with: acetylcholine EC20",,activity,inactive
CCCCn1cc(-c2ccc(COc3ccccc3-c3cc(=O)n(C4CCCCC4O)cn3)cc2)cn1 (stereo not drawn),CHRM1,"positive allosteric modulator, IP1 accumulation",CHO-M1 cells,"1 µM, 60 min, 37 °C, together with: ACh","baseline: ACh alone, higher = stronger potentiation",ΔpEC50 of ACh,1.49 ± 0.1 log units
Nc1ncnc2c1nc(Sc1ccc(Cl)cc1)n2[C@@H]1O[C@@H]2COP(=O)(O)O[C@H]2[C@H]1O,"cAMP-dependent protein kinase type II-beta regulatory subunit, holoenzyme with catalytic subunit (Prkar2b, Rattus norvegicus, UniProt P12369, S112A)","PKA holoenzyme activation, activator, fluorescence anisotropy",,,"baseline: RIIβ over RIα, higher = RIIβ-selective",selectivity ratio,0.2
CN(C)C(=O)c1ccc(COc2ccccc2-c2cc(=O)n(C3CCCCC3O)cn2)cc1 (stereo not drawn),CHRM1,"positive allosteric modulator, IP1 accumulation",CHO-M1 cells,"1 µM, 60 min, 37 °C, together with: ACh","baseline: ACh alone, higher = stronger potentiation",ΔpEC50 of ACh,0.32 ± 0.09 log units
Cc1nc[nH]c1-c1ccnc(Nc2ccc(N3CCOCC3)cc2)c1,"MAPK10 (Homo sapiens, UniProt P53779)","thermal stability, nanoDSF",,50 µM,,melting temperature,53.8 °C
CCc1nc2c([nH]1)c(=O)n(C)c(=O)n2C,"PGR (Homo sapiens, UniProt P06401)","reporter gene, antagonist, MMTV-luciferase",T47D/A1-2,"10 µM, 24 h, together with: 5 nM progesterone",baseline: maximal activity,remaining activity,76%
O=C1C=C(O)C(=O)c2ccccc21,"thyX (Mycobacterium tuberculosis, UniProt P9WG57)","oxidase activity, activator",,"aerobic, no CH2H4folate, together with: 200 µM NADPH",,activation constant,9 ± 4 µM
O=C(c1ccc(COc2ccccc2-c2cc(=O)n(C3CCCCC3O)cn2)cc1)N1CCCCC1 (stereo not drawn),CHRM1,"allosteric agonist, IP1 accumulation",CHO-M1 cells,"10 µM, unit not given",baseline: maximum ACh response,change in baseline activity,26.9 ± 3.2
CSc1ccc(/C=C2/C(C)=C(CC(=O)O)c3cc(F)ccc32)cc1,"PDE1A (Homo sapiens, UniProt P54750)","cAMP hydrolysis, inhibitor, IMAP fluorescence polarization",,up to 200 µM,,IC50,inactive
CCOc1ccccc1-c1nc(Nc2nc3ccccc3o2)ncc1C#N,"Grm5 (Rattus norvegicus, UniProt P31424)","calcium mobilization, negative allosteric modulator",,together with: glutamate EC80,baseline: maximal glutamate response,maximal response,4.5 ± 0.9%
CS(=O)(=O)c1ccc(COc2ccccc2-c2cc(=O)n(C3CCCCC3O)cn2)cc1 (stereo not drawn),CHRM1,"positive allosteric modulator, IP1 accumulation",CHO-M1 cells,"10 µM, 60 min, 37 °C, together with: ACh","baseline: ACh alone, higher = stronger potentiation",ΔpEC50 of ACh,1.27 ± 0.17 log units
COc1c2c(c(O)c3c(=O)c4cccc(O[C@@H]5OC(C(=O)O)=C[C@H](O)[C@H]5O)c4oc13)-c1c(cc(CC(C)=O)c(C(=O)O)c1O)CC2,"T2, DNA G4, G-quadruplex (Homo sapiens)",fluorescence intensity titration,,"pH 6.8, KCl 8 mM, one site with Hill slope",,Kd,3 mM
CC(C)n1cc(-c2ccc(COc3ccccc3-c3cc(=O)n(C4CCCCC4O)cn3)cc2)cn1 (stereo not drawn),CHRM1,"positive allosteric modulator, IP1 accumulation",CHO-M1 cells,"1 µM, 60 min, 37 °C, together with: ACh","baseline: ACh alone, higher = stronger potentiation",ΔpEC50 of ACh,1.56 ± 0.09 log units
CC[C@H](C)[C@H](NC(=O)[C@@H](NC(=O)[C@H](CC(=O)O)NC(=O)[C@H](CC(C)C)NC(=O)[C@H](CO)NC(C)=O)C(C)C)C(=O)N1CCC[C@H]1C(=O)N[C@H](C(=O)N[C@@H](C)C(=O)N[C@@H](CCC(N)=O)C(=O)N[C@@H](CC(C)C)C(=O)N[C@@H](CC(C)C)C(=O)N[C@@H](CO)C(=O)N[C@@H](CCSC)C(=O)N1CCC[C@H]1C(=O)N[C@@H](CO)C(=O)N[C@@H](CC(=O)O)C(=O)N[C@@H](CCC(N)=O)C(=O)N[C@@H](CC(=O)O)C(=O)N[C@@H](CC(N)=O)C(=O)N[C@@H](CC(N)=O)C(N)=O)C(C)C,"MMP9 (Homo sapiens, UniProt P14780)","substrate, LC-MS/MS",,"24 h, 37 °C, together with: peptide to enzyme 20:1 w/w",,cleavage efficiency,~93% and 93%
COc1ccc(COc2ccccc2-c2cc(=O)n(C3CCCCC3O)cn2)cc1 (stereo not drawn),CHRM1,"positive allosteric modulator, IP1 accumulation",CHO-M1 cells,"10 µM, 60 min, 37 °C, together with: ACh","baseline: ACh alone, higher = stronger potentiation",ΔpEC50 of ACh,1.47 ± 0.22 log units
COC(=O)[C@H](c1ccccc1Cl)N1CCc2sccc2C1,"P2Y purinoceptor 12 (P2ry12, Rattus norvegicus, UniProt Q9EPX4)",,rat,"oral, 10 mg/kg",,receptor occupancy,19.7 ± 3.1%
COC(=O)c1ccc(COc2ccccc2-c2cc(=O)n(C3CCCCC3O)cn2)cc1 (stereo not drawn),CHRM1,"allosteric agonist, IP1 accumulation",CHO-M1 cells,"1 µM, unit not given",baseline: maximum ACh response,change in baseline activity,-12.5 ± 2.5
GRTKQEARKSTGG,"SETD7 (Homo sapiens, UniProt Q8WTS6)","peptide methylation, substrate, MALDI-TOF MS",peptide,"10 µM, 3 h, pH 8.0, 37 °C, enzyme 500 nM, together with: SAM 30 µM",,methylation conversion,~36%

# For quick reference, copied from above:
Molecule,target,assay,test system,conditions,scale,quantity,result
CN(C)C(=O)c1ccc(COc2ccccc2-c2cc(=O)n(C3CCCCC3O)cn2)cc1 (stereo not drawn),CHRM1,"positive allosteric modulator, IP1 accumulation",CHO-M1 cells,"1 µM, 60 min, 37 °C, together with: ACh","baseline: ACh alone, higher = stronger potentiation",ΔpEC50 of ACh,0.32 ± 0.09 log units
Cc1nc[nH]c1-c1ccnc(Nc2ccc(N3CCOCC3)cc2)c1,"MAPK10 (Homo sapiens, UniProt P53779)","thermal stability, nanoDSF",,50 µM,,melting temperature,53.8 °C
CCc1nc2c([nH]1)c(=O)n(C)c(=O)n2C,"PGR (Homo sapiens, UniProt P06401)","reporter gene, antagonist, MMTV-luciferase",T47D/A1-2,"10 µM, 24 h, together with: 5 nM progesterone",baseline: maximal activity,remaining activity,76%
